Results gathered from unrelated publications.
Each line is one published result; not all experiments were run side by side. Several values in a cell are separate wells, animals, samples, runs or records. ± gives the spread as reported.
HTR3A: 5-hydroxytryptamine receptor 3A (HTR3A, Homo sapiens, UniProt P46098)
CGAS catalytic domain; with DNA: Cyclic GMP-AMP synthase, catalytic domain; with DNA (CGAS, Homo sapiens, UniProt Q8N884)

`Clc1cncc(OC[C@H]2CN(CCN3CCc4ccccc43)CCO2)c1` gave an inhibition of -9.7% (HTR3A; radioligand binding; concentration not given, with: [3H]GR65630).
For `CCN(CC)c1ccc(C2=NNC(=O)CC2C)cc1[N+](=O)[O-]` (centres unmarked), the inhibition was 16% (cGMP-specific 3',5'-cyclic phosphodiesterase (PDE5A, Homo sapiens, UniProt O76074); enzyme activity, Caliper; 0.1 µM).
`COc1cc(C(=O)NS(=O)(=O)c2ccccc2C)ccc1Cc1cn(C)c2ccc(NC(=O)OC3CCCC3)cc12` gave an inhibition of 28.9% and 30.1% and 29.6% and 38.8% (Volume-regulated anion channel subunit LRRC8C, part LRRC8A IL1 chimera (LRRC8C, Homo sapiens, UniProt Q8TDW0, L136K); ion current, inhibitor, whole-cell patch clamp; HCT LRRC8-/- cells; 0.03 µM, +100 mV).
`CN1CCN(c2cc(-c3ccncc3)c(-c3ccc4ccccc4c3)nn2)CC1` has an inhibition of 1.9% (Melanocortin receptor 5 (MC5R, Homo sapiens, UniProt P33032); antagonist, FLIPR; 10 µM).
With `COc1cccc(OC[C@H]2CN(CCN3CCc4ccccc43)CCO2)c1` the inhibition was -6.8% (HTR3A; radioligand binding; concentration not given, with: [3H]GR65630).
With `CNc1cc(Oc2cc(C(=O)Nc3cc(N4CCN(C)CC4)cc(C(F)(F)F)c3)ccc2C)ncn1` the inhibition was -12.4% (Serine/threonine-protein kinase STK11 (STK11, Homo sapiens, UniProt Q15831); kinase activity; 1 µM).
The inhibition of `NC/C(=C\F)COc1cccc(Cn2c(=S)[nH]c(=O)c3[nH]cnc32)c1` is reported as 96.8% (Amine oxidase [copper-containing] 3 (AOC3, Homo sapiens, UniProt Q16853); H2O2 production, Amplex Red; 0.1235 µM, recombinant human enzyme).
`Cc1cc2c(cc1N1C(=O)c3cccc4c(CCCO)ccc(c34)C1=O)n(C)c(=O)n2C` (racemic) gave an inhibition of 78% (Transcription intermediary factor 1-alpha, PHD-bromodomain (TRIM24, Homo sapiens, UniProt O15164); binding, BROMOscan; 1000 nM, PHD-bromodomain).
For `C#Cc1cc(-c2cc(Nc3nc(N[C@@H](C)c4ccc(F)cn4)ncc3Cl)n[nH]2)ccc1C=O`, the inhibition was 101% (High affinity nerve growth factor receptor (NTRK1, Homo sapiens, UniProt P04629, G667C); enzyme activity, inhibitor; 0.2 µM).
For `COc1ccc(F)cc1C(=O)NCc1ccc(-c2nn([C@@H](C)C(F)(F)F)c(N)c2C(N)=O)cc1`, the inhibition was 31.5% (Phosphatidylinositol 4,5-bisphosphate 3-kinase catalytic subunit beta isoform (PIK3CB, Homo sapiens, UniProt P42338); target engagement, competitive chemoproteomics; human PBMCs; 1 µM).
`Cc1nn(-c2nc3c(F)cc(F)cc3s2)c(O)c1C(c1ccccc1C(=O)O)c1c(C)nn(-c2nc3c(F)cc(F)cc3s2)c1O` gave an inhibition of 101% (CGAS catalytic domain; with DNA; cGAS phase separation, inhibitor; 10 µM).
With `C[C@@H]1CCO[C@H]2Cn3cc(C(=O)NCc4ccc(F)cc4F)c(=O)c(O)c3C(=O)N12` the inhibition was 3.96% (Solute carrier family 22 member 3 (SLC22A3, Homo sapiens, UniProt O75751); transport; MDCK-II, transfected; 5 µM, with: MPP+ 2 µM).
`c1cncc(OC[C@@H]2CN(CCN3CCc4ccccc43)CCO2)c1` gave an inhibition of 3.2% (HTR3A; radioligand binding; concentration not given, with: [3H]GR65630).
For `COc1ccccc1OCCNCC(O)COc1cccc2[nH]c3ccccc3c12` (centres unmarked), the inhibition was 15.2 ± 12.7% (Trypanothione synthetase (Leishmania infantum, UniProt A4I2Z3); enzyme activity, inhibitor, phosphate release; 25 µM).
`Cc1nn(-c2nc3ccccc3[nH]2)c(O)c1C(c1ccccn1)c1c(C)nn(-c2nc3ccccc3[nH]2)c1O` has an inhibition of 58.4% (Cyclic GMP-AMP synthase (CGAS, Homo sapiens, UniProt Q8N884); enzyme activity, inhibitor, pyrophosphatase-coupled; 100 µM, 1.5 h, with: HT-DNA).
`CCc1oc2ccccc2c1C(=O)c1cc(Br)c(O)c(Br)c1` gave an inhibition of 65.2% (Solute carrier family 22 member 12 (SLC22A12, Homo sapiens, UniProt Q96S37, F360A); uric acid uptake; HEK293T transfected with SLC22A12 F360A; 0.5 µM, 10 min, 37 °C, mean, with: [14C]urate 200 µM).
`CC(C)c1cc(C(=O)N2Cc3ccc(CN4CCN(C)CC4)cc3C2)c(O)cc1O` gave an inhibition of > 85% (Hsp90; tracer binding, autoradiography; human and mouse tumour sections; 10 µM, with: [11C]HSP990).
`O=C(NO)c1ccc(CN2CCCCc3ccccc32)c(F)c1` gave an inhibition of 5.33% (Beta-3 adrenergic receptor (ADRB3, Homo sapiens, UniProt P13945); radioligand binding, radioligand displacement; 10 µM, mean of replicates).
The inhibition of `Cc1ccc(OC[C@@H]2CN(CCN3CCc4ccccc43)CCO2)cn1` is reported as -0.4% (HTR3A; radioligand binding; concentration not given, with: [3H]GR65630).
With `CNc1ccc(-c2nc3ccc(O)cc3s2)cc1` the inhibition was 92.9% and 84% (Amyloid-beta precursor protein, amyloid-beta (APP, Homo sapiens, UniProt P05067); binding, competition binding; amyloid-beta aggregates; 1000 nM, with: tritiated amyloid ligand).
`O=C(Nc1cccc2c(=O)cc(-c3nnn[nH]3)oc12)c1ccc(OCCCCc2ccccc2)cc1` has an inhibition of 1.22% and 1.28% and 8.02% (LRRC8A/LRRC8C (Homo sapiens, UniProt Q8IWT6+Q8TDW0, M48D/T48D); ion current, whole-cell patch clamp; HCT LRRC8-/- cells; 1 µM, +100 mV, T48D/M48D heteromers).
With `CS(=O)(=O)Nc1cccc(-c2csc(NC(=O)CSc3nc4nccnc4c(=O)n3CCc3ccccc3)n2)c1` the inhibition was 7% (Phosphatidylinositol 4,5-bisphosphate 3-kinase catalytic subunit beta isoform, with p85 alpha (PIK3CB, Homo sapiens, UniProt P42338); kinase activity, inhibitor; 10 µM, with: PIK3R1 complex).
`COc1cc2nc(N3CCN(C(=O)c4ccco4)CC3)nc(N)c2cc1OC` gave an inhibition of 99.7% (rat α1-Adrenergic receptor; binding; 1 × 10 µM).
`Cc1nn(-c2nc3ccccc3s2)c(O)c1C(c1ccccc1C(=O)O)c1c(C)nn(-c2nc3ccccc3s2)c1O` has an inhibition of 120% (CGAS catalytic domain; with DNA; cGAS phase separation, inhibitor; 20 µM).
With `OO` the inhibition was 8 ± 8% (Histone acetyltransferase GCN5, with Ada2 and Ada3 (Saccharomyces cerevisiae S288c, UniProt Q03330); enzyme activity; 1 mM, with: Gcn5-Ada2-Ada3 complex, without DTT).
For `Cc1nn(-c2nc3ccccc3[nH]2)c(O)c1C(c1ccccc1C(=O)O)c1c(C)nn(-c2nc3ccccc3[nH]2)c1O`, the inhibition was 87.2% (CGAS catalytic domain; with DNA; liquid-liquid phase separation, inhibitor; 2.5 µM).
`O=C(CN1CCO[C@H](COc2cccc(Cl)c2)C1)N1CCc2ccccc21` gave an inhibition of 8.3% (HTR3A; radioligand binding; concentration not given, with: [3H]GR65630).
`Cc1nc(Nc2ncc(C(=O)Nc3c(C)cccc3Cl)s2)cc(N2CC[C@H](O)C2)n1` gave an inhibition of ~91% (Ephrin type-B receptor 1 (EPHB1, Homo sapiens, UniProt P54762); 0.01 µM).
`Clc1cccc(OC[C@@H]2CN(CCN3CCc4ccccc43)CCO2)c1` gave an inhibition of 8.4% (HTR3A; radioligand binding; concentration not given, with: [3H]GR65630).
`CC[C@@H]1[C@H](F)C(=O)N[C@@H]1COc1nccc2cc(C(N)=O)c(OC)cc12` gave an inhibition of 7.4% (Dual specificity mitogen-activated protein kinase kinase 6 (MAP2K6, Homo sapiens, UniProt P52564); ATP-site probe binding, ActivX profiling; THP-1 cell lysate; 0.01 mM, Lys2 site).
With `c1ccc(OC[C@@H]2CN(CCN3CCc4ccccc43)CCO2)cc1` the inhibition was 8.4% (HTR3A; radioligand binding; concentration not given, with: [3H]GR65630).
`CC/C(=N\NC(=O)NCc1cccc(O)c1)c1ccc(O)c(C)c1O` gave an inhibition of -1.3% (Casein kinase II subunit alpha', with CK2 beta (CSNK2A2, Homo sapiens, UniProt P19784); kinase activity; 0.1 µM).

Excerpt of the above:
With `OO` the inhibition was 8 ± 8% (Histone acetyltransferase GCN5, with Ada2 and Ada3 (Saccharomyces cerevisiae S288c, UniProt Q03330); enzyme activity; 1 mM, with: Gcn5-Ada2-Ada3 complex, without DTT).
For `Cc1nn(-c2nc3ccccc3[nH]2)c(O)c1C(c1ccccc1C(=O)O)c1c(C)nn(-c2nc3ccccc3[nH]2)c1O`, the inhibition was 87.2% (CGAS catalytic domain; with DNA; liquid-liquid phase separation, inhibitor; 2.5 µM).
